Published values from different studies.
Compare with care: the assays were run in different laboratories.

`Cc1ccc2nc(C)c(CC(=O)NCc3ccc(N(C)C)cc3)n2c1` gave an MIC of 10 µM (Mycobacterium tuberculosis variant bovis BCG; microbial growth; BCG; 6 days).
With `O=C(NC12CC3CC(CC(C3)C1)C2)c1cc2cc(Cl)ccc2[nH]1` the MIC was 0.06 µM (Mycobacterium tuberculosis variant bovis BCG; microbial growth; THP-1, BCG; intracellular).
`COc1ccc2c3c(oc2c1CC=C(C)C)-c1cc(CC=C(C)C)c(O)cc1OC3`: MIC “inactive” (Salmonella enterica serovar Typhi; DMST 22842; up to 128 µg/mL).
The MIC of `CNc1nc(SC)nc2ccccc12` is reported as 0.3 µM (Mycobacterium tuberculosis variant bovis BCG; microbial growth; BCG).
`CC[C@H](C)[C@H](NC(=O)[C@H](C)NC(=O)[C@@H]1CCCN1C(=O)[C@H](CC(C)C)NC(=O)[C@H](Cc1ccccc1)NC(=O)[C@H](CCCCN)NC(=O)[C@H](CCSC)NC(=O)[C@H](C)NC(=O)[C@H](CCSC)NC(=O)[C@H](CCCCN)NC(=O)[C@H](C)NC(=O)[C@@H](NC(=O)[C@@H](NC(=O)CNC(=O)[C@H](Cc1ccccc1)NC(=O)[C@@H](N)Cc1ccccc1)C(C)C)[C@@H](C)CC)C(=O)N[C@@H](Cc1ccccc1)C(=O)N[C@@H](CCCCN)C(=O)N[C@@H](CCC(N)=O)C(=O)N[C@H](C(=O)N[C@@H](CCC(N)=O)C(=O)N[C@@H](CCCCN)C(=O)N[C@@H](CCCCN)C(=O)N[C@@H](CCCNC(=N)N)C(=O)N[C@@H](CCCCN)C(N)=O)[C@@H](C)CC` gave an MIC of 12.5 to 25 µM (Mycolicibacterium smegmatis; ATP luminescence; ATCC 607; 48 h).
For `CC[C@H](C)[C@@H]1NC(=O)[C@H](CC(C)C)NC(=O)[C@@H](NC(=O)[C@H](CO)NC(=O)[C@H](CCCNC(=N)N)NC(=O)[C@@H](N)CO)CSSC[C@@H](C(=O)N[C@@H](CCC(N)=O)C(=O)N[C@@H](CCCNC(=N)N)C(=O)N[C@@H](CC(C)C)C(=O)N[C@@H](Cc2ccccc2)C(N)=O)NC(=O)[C@H](C(C)C)NC(=O)[C@H]([C@@H](C)CC)NC(=O)[C@H](CC(C)C)NC(=O)[C@@H](NC(=O)[C@H](CO)NC(=O)[C@H](CCCNC(=N)N)NC(=O)[C@@H](N)CO)CSSC[C@@H](C(=O)N[C@@H](CCC(N)=O)C(=O)N[C@@H](CCCNC(=N)N)C(=O)N[C@@H](CC(C)C)C(=O)N[C@@H](Cc2ccccc2)C(N)=O)NC(=O)[C@H](C(C)C)NC1=O`, the MIC was > 100 µg/mL (Candida parapsilosis; broth microdilution; ATCC 22019).
`Cc1ccc2nc(C)c(C(=O)NCc3cccs3)n2c1` has an MIC of > 10 µM (Mycobacterium tuberculosis variant bovis BCG; microbial growth; THP-1, BCG; intracellular).
For `CC(C)=CCc1cc(-c2coc3cc(O)c(CC=C(C)C)c(O)c3c2=O)ccc1O`, MIC read “inactive” (Salmonella enterica serovar Typhi; DMST 22842; up to 128 µg/mL).
`N=C(N)NCCC[C@@H]1NC(=O)[C@H](CCCNC(=N)N)NC(=O)[C@H](CCCNC(=N)N)NC(=O)[C@H](CCCNC(=N)N)NC(=O)[C@H](Cc2c[nH]c3ccccc23)NC(=O)[C@H](CCCNC(=N)N)NC(=O)[C@H](CCCNC(=N)N)NC(=O)[C@@H](N)CCCCn2cc(nn2)C[C@@H](C(N)=O)NC1=O` has an MIC of 15.6 µg/mL (Salmonella enterica serovar Paratyphi B; 24 h, 37 °C).
The MIC of `Cc1ccc(CNC(=O)C(=O)c2c(C)nc3ccc(C)cn23)cc1` is reported as 15 µM (Mycobacterium tuberculosis variant bovis BCG; microbial growth; BCG; 6 days).
The MIC of `CC[C@H](C)[C@H](NC(=O)[C@H](CCC(N)=O)NC(=O)[C@@H]1CCCN1C(=O)[C@@H](NC(=O)[C@@H](NC(=O)[C@H](Cc1ccccc1)NC(=O)[C@H](C)NC(=O)[C@H](C)NC(=O)[C@H](CC(C)C)NC(=O)[C@H](CCCNC(=N)N)NC(=O)[C@H](C)NC(=O)[C@H](CC(C)C)NC(=O)[C@H](CC(C)C)NC(=O)CNC(=O)[C@@H](NC(=O)[C@@H](N)Cc1ccccc1)C(C)C)C(C)C)[C@@H](C)CC)C(=O)N[C@H](C(=O)N[C@@H](CCCCN)C(=O)N[C@@H](CCCNC(=N)N)C(=O)N[C@@H](Cc1ccccc1)C(=O)N[C@@H](CCC(N)=O)C(=O)N[C@@H](CCCCN)C(=O)N[C@@H](CCCCN)C(=O)N[C@@H](CC(N)=O)C(N)=O)C(C)C` is reported as 50 µM (Mycolicibacterium smegmatis; ATP luminescence; ATCC 607; 48 h).
`c1cc2c(s1)CCOC21CCN(Cc2ccc3c(c2)OCCO3)CC1` gave an MIC of 1.6 µM (Mycobacterium tuberculosis variant bovis BCG; microbial growth; BCG).
For `Cc1ccc2nc(C)c(C(=O)C(=O)NCc3ccccc3)n2c1`, the MIC was 29 µM (Mycobacterium tuberculosis variant bovis BCG; microbial growth; BCG; 6 days).
